Measurements collected from several papers.
Numbered parts are unrelated; each lists some results of a single study. Values joined by “and” are separate records of one study, mostly repeats; a detail may differ.
Chain of UniProt P35916 (whole entry, looked up): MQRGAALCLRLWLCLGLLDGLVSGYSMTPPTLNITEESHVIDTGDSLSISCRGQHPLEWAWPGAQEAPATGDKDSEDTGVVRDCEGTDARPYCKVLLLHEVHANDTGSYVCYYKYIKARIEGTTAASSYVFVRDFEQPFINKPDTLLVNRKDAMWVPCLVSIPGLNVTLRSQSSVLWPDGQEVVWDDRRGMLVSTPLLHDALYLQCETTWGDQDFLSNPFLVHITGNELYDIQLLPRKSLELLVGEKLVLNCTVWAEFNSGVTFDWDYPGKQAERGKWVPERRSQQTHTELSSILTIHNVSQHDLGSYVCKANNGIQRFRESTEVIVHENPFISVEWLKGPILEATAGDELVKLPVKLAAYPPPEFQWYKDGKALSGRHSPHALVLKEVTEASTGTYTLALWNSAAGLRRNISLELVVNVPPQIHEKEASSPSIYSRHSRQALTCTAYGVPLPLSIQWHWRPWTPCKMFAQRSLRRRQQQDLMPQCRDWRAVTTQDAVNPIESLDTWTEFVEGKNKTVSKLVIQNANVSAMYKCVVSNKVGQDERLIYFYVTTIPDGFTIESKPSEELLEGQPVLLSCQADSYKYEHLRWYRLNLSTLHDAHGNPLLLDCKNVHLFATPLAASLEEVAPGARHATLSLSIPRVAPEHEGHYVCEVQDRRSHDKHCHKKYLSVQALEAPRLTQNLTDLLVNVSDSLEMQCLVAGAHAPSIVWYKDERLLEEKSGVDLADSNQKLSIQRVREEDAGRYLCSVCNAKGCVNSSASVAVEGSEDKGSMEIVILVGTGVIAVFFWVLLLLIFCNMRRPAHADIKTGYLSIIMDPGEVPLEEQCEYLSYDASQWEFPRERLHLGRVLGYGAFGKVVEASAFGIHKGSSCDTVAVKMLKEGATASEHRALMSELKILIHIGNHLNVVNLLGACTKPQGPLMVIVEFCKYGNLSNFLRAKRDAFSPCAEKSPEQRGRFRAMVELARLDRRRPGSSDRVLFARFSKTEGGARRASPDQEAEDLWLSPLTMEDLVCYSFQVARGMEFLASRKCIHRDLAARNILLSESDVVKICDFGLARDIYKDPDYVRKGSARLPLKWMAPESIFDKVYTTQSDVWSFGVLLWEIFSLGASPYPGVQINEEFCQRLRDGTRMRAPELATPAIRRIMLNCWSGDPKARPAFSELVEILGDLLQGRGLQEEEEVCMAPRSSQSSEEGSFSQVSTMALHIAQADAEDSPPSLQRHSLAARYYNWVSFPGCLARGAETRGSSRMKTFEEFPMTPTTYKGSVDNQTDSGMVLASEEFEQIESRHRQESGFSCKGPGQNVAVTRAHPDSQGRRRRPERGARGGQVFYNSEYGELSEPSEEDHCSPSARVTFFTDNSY
Chain of UniProt Q12852 (whole entry, looked up): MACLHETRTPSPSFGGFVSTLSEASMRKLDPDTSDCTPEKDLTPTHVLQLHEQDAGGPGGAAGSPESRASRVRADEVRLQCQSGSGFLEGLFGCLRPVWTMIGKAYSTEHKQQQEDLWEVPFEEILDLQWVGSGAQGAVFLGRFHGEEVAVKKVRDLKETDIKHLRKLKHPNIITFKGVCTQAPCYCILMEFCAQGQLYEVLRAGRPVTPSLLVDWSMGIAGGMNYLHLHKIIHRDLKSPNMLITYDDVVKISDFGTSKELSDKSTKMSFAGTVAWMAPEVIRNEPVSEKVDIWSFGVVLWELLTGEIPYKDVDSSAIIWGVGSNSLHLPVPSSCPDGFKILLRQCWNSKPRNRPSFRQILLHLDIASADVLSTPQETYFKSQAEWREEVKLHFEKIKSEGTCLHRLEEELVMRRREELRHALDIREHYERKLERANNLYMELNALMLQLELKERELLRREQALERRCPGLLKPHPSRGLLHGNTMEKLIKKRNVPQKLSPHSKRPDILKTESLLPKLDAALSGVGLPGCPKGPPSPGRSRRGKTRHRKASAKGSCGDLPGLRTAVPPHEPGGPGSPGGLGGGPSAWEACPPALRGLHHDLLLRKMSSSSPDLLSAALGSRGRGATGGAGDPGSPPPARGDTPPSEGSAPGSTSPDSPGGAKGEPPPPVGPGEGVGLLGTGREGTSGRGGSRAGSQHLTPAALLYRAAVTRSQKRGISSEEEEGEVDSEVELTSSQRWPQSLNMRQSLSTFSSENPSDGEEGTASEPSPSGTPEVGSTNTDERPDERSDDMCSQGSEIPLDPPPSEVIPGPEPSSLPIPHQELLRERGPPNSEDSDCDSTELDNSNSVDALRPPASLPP

Study 1
SMILES: CO[C@@H]1[C@H](N(C)C(=O)c2ccccc2)C[C@H]2O[C@]1(C)n1c3ccccc3c3c4c(c5c6ccccc6n2c5c31)C(=O)NC4
Observed: enzyme activity
Mode: inhibitor
Tested at: 1 µM
Measurement: inhibition
IRAK4 (Homo sapiens, UniProt Q9NWZ3): 16%
FLT4 (Homo sapiens, UniProt P35916): 96%
PRKAA1 (Homo sapiens, UniProt Q13131): 91%
ACVR2B (Homo sapiens, UniProt Q13705): 0%
MET (Homo sapiens, UniProt P08581, M1250T): 31%
MAP3K12 (Homo sapiens, UniProt Q12852): 28%
IGF1R (Homo sapiens, UniProt P08069): 0%
BMPR2 (Homo sapiens, UniProt Q13873): 0%
PAK6 (Homo sapiens, UniProt Q9NQU5): 5%

Study 2
Structure (SMILES): CCC(=O)N[C@@H]1CC[C@H](C(=O)N(C)c2ccc(-c3nc4ccccc4o3)cc2)C1
Observed: cell-free assay
Technique: competition with immobilised ligand
Tested at: 1 µM
Measurement: remaining binding
Ribosomal protein S6 kinase alpha-2, C-terminal kinase domain (RPS6KA2, Homo sapiens, UniProt Q15349): 100%
LIM domain kinase 2 (LIMK2, Homo sapiens, UniProt P53671): 100%
CDK13 (Homo sapiens, UniProt Q14004): 100%
CAMK1D (Homo sapiens, UniProt Q8IU85): 100%
MAPKAPK2 (Homo sapiens, UniProt P49137): 87%
RIOK3 (Homo sapiens, UniProt O14730): 100%
TSSK1B (Homo sapiens, UniProt Q9BXA7): 76%
TIE1 (Homo sapiens, UniProt P35590): 95%
Tyrosine-protein kinase ABL1, phosphorylated (ABL1, Homo sapiens, UniProt P00519, Q252H): 87%
PDGFRA (Homo sapiens, UniProt P16234): 86%
PIM3 (Homo sapiens, UniProt Q86V86): 96%
FLT3 (Homo sapiens, UniProt P36888, D835H): 100%
MAP3K6 (Homo sapiens, UniProt O95382): 75%
CHEK1 (Homo sapiens, UniProt O14757): 100%
RET (Homo sapiens, UniProt P07949): 93%
MAP4K3 (Homo sapiens, UniProt Q8IVH8): 100%
CAMK2A (Homo sapiens, UniProt Q9UQM7): 100%
Tyrosine-protein kinase ABL1, phosphorylated (ABL1, Homo sapiens, UniProt P00519, M351T): 100%

Study 3
Target: DNA polymerase theta, ATPase domain (POLQ, Homo sapiens, UniProt O75417)
Chain of UniProt O75417 (whole entry, unmodified, looked up): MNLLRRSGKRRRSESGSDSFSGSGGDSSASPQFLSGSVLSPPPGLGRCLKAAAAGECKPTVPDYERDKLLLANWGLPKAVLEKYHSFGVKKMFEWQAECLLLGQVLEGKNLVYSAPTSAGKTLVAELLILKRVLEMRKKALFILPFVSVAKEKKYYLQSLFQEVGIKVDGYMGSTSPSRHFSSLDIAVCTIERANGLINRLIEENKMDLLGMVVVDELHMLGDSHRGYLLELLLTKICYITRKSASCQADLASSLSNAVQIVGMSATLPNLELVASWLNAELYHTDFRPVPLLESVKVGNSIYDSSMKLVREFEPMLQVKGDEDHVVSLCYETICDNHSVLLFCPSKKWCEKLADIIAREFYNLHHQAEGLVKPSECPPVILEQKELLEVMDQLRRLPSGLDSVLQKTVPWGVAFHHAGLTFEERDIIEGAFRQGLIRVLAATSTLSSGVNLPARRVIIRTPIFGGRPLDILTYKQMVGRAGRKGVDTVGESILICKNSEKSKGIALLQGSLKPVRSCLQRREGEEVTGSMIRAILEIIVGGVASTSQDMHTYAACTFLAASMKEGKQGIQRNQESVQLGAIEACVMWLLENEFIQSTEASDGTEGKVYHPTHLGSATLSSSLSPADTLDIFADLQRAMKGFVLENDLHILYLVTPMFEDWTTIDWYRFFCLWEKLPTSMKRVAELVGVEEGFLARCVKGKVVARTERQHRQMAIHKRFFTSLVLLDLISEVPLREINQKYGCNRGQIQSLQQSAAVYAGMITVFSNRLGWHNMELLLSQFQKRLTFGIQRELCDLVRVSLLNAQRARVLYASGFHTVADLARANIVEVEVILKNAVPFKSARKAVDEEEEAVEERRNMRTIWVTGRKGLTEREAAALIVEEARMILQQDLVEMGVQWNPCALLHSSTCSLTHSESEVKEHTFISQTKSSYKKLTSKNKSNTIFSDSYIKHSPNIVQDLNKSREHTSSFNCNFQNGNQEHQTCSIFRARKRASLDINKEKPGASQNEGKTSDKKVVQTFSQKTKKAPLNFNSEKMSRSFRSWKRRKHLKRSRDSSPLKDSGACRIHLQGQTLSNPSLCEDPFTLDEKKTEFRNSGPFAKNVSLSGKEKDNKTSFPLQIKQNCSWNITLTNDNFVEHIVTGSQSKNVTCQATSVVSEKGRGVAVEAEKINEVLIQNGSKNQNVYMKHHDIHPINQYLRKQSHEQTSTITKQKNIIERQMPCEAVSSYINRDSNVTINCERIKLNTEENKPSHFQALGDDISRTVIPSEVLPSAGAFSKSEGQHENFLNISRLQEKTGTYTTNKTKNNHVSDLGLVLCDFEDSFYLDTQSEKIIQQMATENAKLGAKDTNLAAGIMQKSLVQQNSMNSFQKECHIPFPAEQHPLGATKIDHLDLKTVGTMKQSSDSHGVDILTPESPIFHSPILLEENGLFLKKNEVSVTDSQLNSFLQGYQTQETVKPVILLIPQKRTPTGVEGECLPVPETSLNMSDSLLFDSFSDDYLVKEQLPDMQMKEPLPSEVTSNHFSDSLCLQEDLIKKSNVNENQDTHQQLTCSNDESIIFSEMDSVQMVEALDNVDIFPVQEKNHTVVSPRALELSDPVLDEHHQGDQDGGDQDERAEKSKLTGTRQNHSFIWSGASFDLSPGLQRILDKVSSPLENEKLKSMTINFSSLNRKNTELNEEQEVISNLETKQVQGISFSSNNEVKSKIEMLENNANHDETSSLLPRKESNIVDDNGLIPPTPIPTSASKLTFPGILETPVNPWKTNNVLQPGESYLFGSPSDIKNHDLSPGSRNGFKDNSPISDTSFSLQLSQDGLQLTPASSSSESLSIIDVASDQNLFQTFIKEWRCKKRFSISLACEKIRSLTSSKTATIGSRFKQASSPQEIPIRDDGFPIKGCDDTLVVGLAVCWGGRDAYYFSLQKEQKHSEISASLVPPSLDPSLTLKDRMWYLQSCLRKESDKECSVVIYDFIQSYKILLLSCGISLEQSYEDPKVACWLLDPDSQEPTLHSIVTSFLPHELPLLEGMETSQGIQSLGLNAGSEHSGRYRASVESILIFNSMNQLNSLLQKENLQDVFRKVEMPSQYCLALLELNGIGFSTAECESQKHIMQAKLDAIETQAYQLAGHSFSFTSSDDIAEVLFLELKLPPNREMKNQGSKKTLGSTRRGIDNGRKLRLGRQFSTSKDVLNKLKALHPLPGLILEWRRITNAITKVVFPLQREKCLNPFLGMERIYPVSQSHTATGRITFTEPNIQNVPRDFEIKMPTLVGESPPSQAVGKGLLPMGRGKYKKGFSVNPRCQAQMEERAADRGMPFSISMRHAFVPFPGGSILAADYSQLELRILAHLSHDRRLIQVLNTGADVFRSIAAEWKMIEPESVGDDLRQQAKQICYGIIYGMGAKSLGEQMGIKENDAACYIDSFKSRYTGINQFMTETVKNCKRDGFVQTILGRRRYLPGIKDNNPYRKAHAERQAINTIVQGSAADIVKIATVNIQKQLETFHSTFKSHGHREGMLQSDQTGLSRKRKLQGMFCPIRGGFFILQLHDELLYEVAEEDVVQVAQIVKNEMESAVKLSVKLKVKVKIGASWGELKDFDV
Observed: enzyme activity
Mode: inhibitor
Tested at: 77 µM
Baseline: untreated
Measurement: remaining activity
NCCC1CCCC(CCN)N1 (stereo not shown): 100%
Nc1nc2c(ncn2COCCO)c(=O)[nH]1: 101% and 102% and 95.7%
CC#CCOC(=O)c1c(C)nc2sc3c(c2c1N)CCC(O)C3 (stereo not shown): 95.9%
C[C@@H](N)[C@H]1CC[C@H](C(=O)Nc2ccncc2)CC1: 102% and 111%
O=c1[nH]c(=O)n([C@H]2C[C@H](O)[C@@H](CO)O2)cc1F: 97.2%
Cc1cc2c(F)c(Oc3ncnn4cc(OC[C@@H](C)O)c(C)c34)ccc2[nH]1: 103%
CC(C)(O/N=C(\C(=O)N[C@@H]1C(=O)N2C(C(=O)[O-])=C(C[n+]3ccccc3)CS[C@H]12)c1csc(N)n1)C(=O)O: 93.2%

Study 4
SMILES: CN1CCN(C(=O)c2ccc(NC(=O)Nc3ccc(N(C)c4ccnc(Nc5ccc(CS(C)(=O)=O)cc5)n4)cc3)cc2)CC1
Tested at: 1 µM
Measurement: remaining activity
FLT4 (Homo sapiens, UniProt P35916): 2%
DDR1 (Homo sapiens, UniProt Q08345): 0%
DDR2 (Homo sapiens, UniProt Q16832): 0%
DCLK3 (Homo sapiens, UniProt Q9C098): 100%
MTOR (Homo sapiens, UniProt P42345); biochemical: 100%
MAP3K19 (Homo sapiens, UniProt Q56UN5): 0%
